Assay results collected from several papers.
Numbered parts are unrelated; each lists some results of a single study. Several values in a cell are separate wells, animals, samples, runs or records.
UniProt Q9C098, sequence (whole entry, looked up): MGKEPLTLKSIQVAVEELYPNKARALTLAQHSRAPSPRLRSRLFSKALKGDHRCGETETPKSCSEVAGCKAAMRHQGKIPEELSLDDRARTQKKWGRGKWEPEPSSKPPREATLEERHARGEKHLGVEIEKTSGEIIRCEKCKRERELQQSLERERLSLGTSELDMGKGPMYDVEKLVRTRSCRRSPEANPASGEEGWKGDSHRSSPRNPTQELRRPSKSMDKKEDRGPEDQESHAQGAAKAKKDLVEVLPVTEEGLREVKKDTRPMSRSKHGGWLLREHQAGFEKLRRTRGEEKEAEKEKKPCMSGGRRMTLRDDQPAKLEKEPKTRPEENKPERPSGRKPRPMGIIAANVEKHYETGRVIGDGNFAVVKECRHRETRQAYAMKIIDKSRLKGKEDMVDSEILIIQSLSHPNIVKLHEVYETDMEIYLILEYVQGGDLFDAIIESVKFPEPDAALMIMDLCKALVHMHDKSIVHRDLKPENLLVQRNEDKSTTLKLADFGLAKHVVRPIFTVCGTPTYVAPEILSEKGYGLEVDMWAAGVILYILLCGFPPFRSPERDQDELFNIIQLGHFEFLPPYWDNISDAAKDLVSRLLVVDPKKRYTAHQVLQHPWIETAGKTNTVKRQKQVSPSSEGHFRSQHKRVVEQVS
UniProt Q9H2X6, sequence (whole entry, looked up): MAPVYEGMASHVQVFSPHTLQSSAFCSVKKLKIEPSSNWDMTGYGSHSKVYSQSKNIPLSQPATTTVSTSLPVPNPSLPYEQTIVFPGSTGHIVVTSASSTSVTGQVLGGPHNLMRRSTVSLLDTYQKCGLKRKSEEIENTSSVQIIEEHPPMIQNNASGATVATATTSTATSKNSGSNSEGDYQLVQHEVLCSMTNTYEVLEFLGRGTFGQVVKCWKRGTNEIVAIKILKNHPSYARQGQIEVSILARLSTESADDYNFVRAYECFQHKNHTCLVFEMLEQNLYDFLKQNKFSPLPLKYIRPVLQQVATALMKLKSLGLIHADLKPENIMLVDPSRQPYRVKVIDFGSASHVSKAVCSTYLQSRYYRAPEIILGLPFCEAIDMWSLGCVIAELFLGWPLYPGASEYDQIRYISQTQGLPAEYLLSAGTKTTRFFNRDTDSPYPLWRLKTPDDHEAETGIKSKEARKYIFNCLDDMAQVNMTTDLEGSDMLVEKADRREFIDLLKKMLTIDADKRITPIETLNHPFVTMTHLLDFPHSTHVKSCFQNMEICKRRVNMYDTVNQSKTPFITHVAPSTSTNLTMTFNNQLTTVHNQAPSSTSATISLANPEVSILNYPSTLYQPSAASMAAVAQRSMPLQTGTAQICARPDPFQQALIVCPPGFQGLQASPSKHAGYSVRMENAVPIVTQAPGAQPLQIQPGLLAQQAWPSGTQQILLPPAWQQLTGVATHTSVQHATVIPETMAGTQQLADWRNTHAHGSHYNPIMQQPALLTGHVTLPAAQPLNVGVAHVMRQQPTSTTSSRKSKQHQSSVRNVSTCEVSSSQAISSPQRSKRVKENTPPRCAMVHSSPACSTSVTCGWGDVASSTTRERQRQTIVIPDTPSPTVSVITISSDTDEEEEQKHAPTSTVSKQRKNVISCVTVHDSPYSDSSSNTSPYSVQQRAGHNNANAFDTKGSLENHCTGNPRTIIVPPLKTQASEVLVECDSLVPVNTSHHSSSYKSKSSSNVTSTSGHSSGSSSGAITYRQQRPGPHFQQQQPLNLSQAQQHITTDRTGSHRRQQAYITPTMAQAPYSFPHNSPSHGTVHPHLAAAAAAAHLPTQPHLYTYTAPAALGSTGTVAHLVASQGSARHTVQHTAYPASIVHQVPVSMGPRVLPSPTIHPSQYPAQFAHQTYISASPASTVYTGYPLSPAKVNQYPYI
UniProt Q7L7X3, sequence (whole entry, looked up): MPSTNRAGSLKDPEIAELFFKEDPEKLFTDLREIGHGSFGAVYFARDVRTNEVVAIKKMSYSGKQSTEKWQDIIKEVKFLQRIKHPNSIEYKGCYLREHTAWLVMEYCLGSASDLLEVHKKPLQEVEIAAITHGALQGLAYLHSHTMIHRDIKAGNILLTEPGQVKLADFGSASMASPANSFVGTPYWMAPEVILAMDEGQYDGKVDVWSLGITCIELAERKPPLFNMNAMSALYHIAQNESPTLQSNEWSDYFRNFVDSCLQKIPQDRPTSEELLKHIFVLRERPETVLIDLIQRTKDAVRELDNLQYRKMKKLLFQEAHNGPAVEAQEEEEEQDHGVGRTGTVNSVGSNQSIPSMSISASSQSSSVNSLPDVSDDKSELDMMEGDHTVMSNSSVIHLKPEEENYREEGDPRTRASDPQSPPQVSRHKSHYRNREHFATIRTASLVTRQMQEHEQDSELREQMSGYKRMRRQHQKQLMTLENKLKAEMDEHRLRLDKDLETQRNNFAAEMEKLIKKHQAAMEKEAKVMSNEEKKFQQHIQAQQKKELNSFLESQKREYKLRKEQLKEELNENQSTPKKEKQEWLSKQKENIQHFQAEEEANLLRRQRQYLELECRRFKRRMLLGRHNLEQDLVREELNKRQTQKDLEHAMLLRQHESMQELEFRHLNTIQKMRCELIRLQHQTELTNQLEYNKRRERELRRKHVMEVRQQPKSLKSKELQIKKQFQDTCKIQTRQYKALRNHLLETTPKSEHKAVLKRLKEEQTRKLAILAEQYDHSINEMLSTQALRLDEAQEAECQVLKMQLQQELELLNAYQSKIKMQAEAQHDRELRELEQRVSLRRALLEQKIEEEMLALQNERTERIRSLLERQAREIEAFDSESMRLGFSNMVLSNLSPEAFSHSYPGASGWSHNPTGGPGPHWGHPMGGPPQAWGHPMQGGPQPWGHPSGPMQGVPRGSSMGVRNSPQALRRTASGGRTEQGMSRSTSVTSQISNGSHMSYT
UniProt O00329, sequence (whole entry, looked up): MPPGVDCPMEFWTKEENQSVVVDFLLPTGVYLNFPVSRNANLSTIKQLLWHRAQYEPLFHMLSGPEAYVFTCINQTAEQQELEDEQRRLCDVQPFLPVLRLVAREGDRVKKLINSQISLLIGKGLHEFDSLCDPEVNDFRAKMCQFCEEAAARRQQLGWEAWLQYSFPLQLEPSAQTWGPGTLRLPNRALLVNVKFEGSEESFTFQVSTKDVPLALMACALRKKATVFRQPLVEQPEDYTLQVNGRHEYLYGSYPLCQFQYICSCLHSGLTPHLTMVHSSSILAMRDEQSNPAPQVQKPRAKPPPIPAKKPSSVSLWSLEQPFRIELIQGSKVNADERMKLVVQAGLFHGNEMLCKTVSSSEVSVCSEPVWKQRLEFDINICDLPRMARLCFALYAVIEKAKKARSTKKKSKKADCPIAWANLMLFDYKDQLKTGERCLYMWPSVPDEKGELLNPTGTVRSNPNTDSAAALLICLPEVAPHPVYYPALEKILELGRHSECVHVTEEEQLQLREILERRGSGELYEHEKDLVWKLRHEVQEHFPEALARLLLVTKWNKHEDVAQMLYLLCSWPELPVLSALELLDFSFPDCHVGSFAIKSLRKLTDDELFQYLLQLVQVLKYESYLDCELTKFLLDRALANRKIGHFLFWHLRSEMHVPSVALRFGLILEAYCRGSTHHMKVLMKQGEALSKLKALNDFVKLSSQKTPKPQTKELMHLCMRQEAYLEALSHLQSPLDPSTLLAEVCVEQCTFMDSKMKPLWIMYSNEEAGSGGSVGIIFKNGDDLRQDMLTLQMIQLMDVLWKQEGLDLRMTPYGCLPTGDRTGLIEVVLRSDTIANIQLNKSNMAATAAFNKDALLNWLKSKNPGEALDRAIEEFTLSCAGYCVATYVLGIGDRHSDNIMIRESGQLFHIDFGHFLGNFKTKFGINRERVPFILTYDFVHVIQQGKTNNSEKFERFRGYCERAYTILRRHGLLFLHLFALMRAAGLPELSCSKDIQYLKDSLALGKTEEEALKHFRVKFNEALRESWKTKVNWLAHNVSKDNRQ
UniProt P49759, sequence (whole entry, looked up): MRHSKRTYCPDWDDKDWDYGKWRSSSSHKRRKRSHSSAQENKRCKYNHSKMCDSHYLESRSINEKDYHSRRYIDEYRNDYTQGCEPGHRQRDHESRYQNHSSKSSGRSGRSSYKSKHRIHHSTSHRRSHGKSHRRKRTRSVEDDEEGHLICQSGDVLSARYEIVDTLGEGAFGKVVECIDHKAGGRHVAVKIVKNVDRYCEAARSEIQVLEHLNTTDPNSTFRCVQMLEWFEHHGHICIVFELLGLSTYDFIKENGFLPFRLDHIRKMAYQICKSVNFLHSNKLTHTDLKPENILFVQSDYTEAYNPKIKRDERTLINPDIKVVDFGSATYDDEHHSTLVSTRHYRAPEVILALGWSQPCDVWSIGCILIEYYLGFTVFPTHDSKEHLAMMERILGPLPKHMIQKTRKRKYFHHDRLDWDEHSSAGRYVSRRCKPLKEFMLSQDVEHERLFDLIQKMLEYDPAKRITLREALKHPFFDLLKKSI

Set 1
SMILES: CCOc1ccc(Nc2c3c(nc4ccccc24)CCC3)cc1
Endpoint: cytotoxicity
J774.1; resazurin; 3.32 µM: 12% and 20%
PMA-differentiated THP-1 macrophages; 80 µM, 64 h: 103% and 104%
J774.1; resazurin; 33.32 µM, 64 h: 84% and 85%
HepG2; resazurin; 0.0332 µM, 48 h: 2% and 1%
J774.1; resazurin; 1.66 µM: -2% and -1%
RAW264.7; resazurin; 0.0332 µM: -4% and -5%
HEK293; resazurin; 0.32 µM, 10% serum: 1%
J774.1; resazurin; 6.66 µM, 64 h: 40% and 24%
J774.1; resazurin; 0.166 µM: -2% and 2%

Set 2
Target: GTPase HRas (HRAS, Homo sapiens, UniProt P01112)
Effect on: binding
Technique: NanoBRET
Cells: HEK293 (live)
Tested at: 0.5686 µM
Reading: lower = stronger binding
Endpoint: target engagement
CC(C)C(=O)N1CCN(c2nc(OC[C@@H]3CCCN3C)nc3c2CCN(c2cccc4cccc(Cl)c24)C3)C[C@@H]1CC#N: 98.8% and 104% and 110%
CC(=O)N1CCN(c2nc(OC[C@@H]3CCCN3C)nc3c2CCN(c2cccc4cccc(Cl)c24)C3)C[C@@H]1CC#N: 96.4% and 101% and 106%
CN1CCC[C@H]1COc1nc2c(c(N3CCN(S(C)(=O)=O)[C@@H](CC#N)C3)n1)CCN(c1cccc3cccc(Cl)c13)C2: 80.7% and 102% and 80%
CCC(=O)N1CCN(c2nc(OC[C@@H]3CCCN3C)nc3c2CCN(c2cccc4cccc(Cl)c24)C3)C[C@@H]1CC#N: 112% and 113% and 104%

Set 3
Target: G protein-coupled receptor kinase 5 (GRK5, Homo sapiens, UniProt P34947)
UniProt P34947, sequence (whole entry, looked up): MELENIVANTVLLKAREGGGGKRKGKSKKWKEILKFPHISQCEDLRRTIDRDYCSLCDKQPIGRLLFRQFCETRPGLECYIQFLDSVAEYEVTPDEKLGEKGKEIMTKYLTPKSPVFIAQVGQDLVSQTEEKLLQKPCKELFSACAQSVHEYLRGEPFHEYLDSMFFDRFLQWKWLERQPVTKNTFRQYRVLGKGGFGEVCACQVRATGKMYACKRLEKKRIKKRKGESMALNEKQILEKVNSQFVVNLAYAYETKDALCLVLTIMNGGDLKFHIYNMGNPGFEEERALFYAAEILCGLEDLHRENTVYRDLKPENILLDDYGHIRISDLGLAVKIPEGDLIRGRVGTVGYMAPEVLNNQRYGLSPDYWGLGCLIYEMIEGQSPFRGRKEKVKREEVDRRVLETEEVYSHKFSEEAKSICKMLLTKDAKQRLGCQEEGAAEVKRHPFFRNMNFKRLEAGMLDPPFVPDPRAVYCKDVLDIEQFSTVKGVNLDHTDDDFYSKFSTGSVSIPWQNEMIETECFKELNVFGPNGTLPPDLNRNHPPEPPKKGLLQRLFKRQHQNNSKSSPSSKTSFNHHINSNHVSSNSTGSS
Effect on: enzyme activity
Mode: inhibitor
Tested at: 0.5 µM
Reference: control
Endpoint: remaining activity
N#Cc1c(NC(=O)c2cccc3ccccc23)sc2c1CCCC2: 98.2%
CCN(CC)C(=O)c1ccc(Nc2nc(OCC3CCCCC3)c3[nH]cnc3n2)cc1: 98.8%
COc1cc2c(cc1OC)-c1[nH]nc(Nc3cccc(F)c3)c1C2: 95.8%
Cc1nc2cc3nc(-c4cccs4)cnc3cc2n1C: 108%
O=c1cc(-c2cccc3c2Sc2ccccc2S3)oc(N2CCOCC2)c1: 105%
O=C(NC(NC(=S)Nc1ccc(F)c([N+](=O)[O-])c1)C(Cl)(Cl)Cl)C(c1ccccc1)c1ccccc1 (centres unmarked): 105%
CCN(CC)CCNC(=O)c1c(C)[nH]c(/C=C2\C(=O)Nc3ccc(Cl)cc32)c1C: 82.7%
Cc1cc2ncc(-c3ccccc3)nc2cc1C: 107%
O=C(Nc1cccc(Nc2nccc(Nc3cccc(C(F)(F)F)c3)n2)c1)C1CC1: 104%
N#C/C(=C\c1ccc(O)c(O)c1)C(=O)NCc1ccccc1: 108%
COc1cc2ncnc(Nc3cccc(Cl)c3)c2cc1OC: 105%
O=C1C(Cl)=C(N2C(=O)CCC2=O)C(=O)c2ccccc21: 91.5%
C[C@@H]1CCN(C(=O)CC#N)C[C@@H]1N(C)c1ncnc2[nH]ccc12: 107%
COc1cc2ncnc(Nc3ccc(O)c(Br)c3)c2cc1OC: 101%
c1ccc(-c2cnc(Nc3ccc(OCCN4CCCC4)cc3)s2)cc1: 99.4%
O=C1c2ccccc2-c2n[nH]c3cccc1c23: 98.8%
CN(C)C[C@H]1CCn2c(c(C3=C(c4cn(C)c5ccccc45)C(=O)NC3=O)c3ccccc32)C1: 56.2%
CCOc1nc(NC(=O)Cc2cc(OC)ccc2OC)cc(N)c1C#N: 95.4%
CN([C@@H](Cc1ccc(OS(=O)(=O)c2cccc3cnccc23)cc1)C(=O)N1CCN(c2ccccc2)CC1)S(=O)(=O)c1cccc2cnccc12: 95.6%
Cc1cn(-c2cc(NC(=O)c3ccc(C)c(Nc4nccc(-c5cccnc5)n4)c3)cc(C(F)(F)F)c2)cn1: 98.6%
Cn1nc2c3c(cccc31)C(=O)c1ccccc1-2: 93.8%
Ic1cccc(CSc2nnc(-c3ccncc3)o2)c1: 106%
Nc1cccc(-c2cc3c(Oc4cccc(O)c4)ncnc3[nH]2)c1: 128%

Set 4
Compound: CN(C)CC#Cc1ccc(OCCCc2sc(N3CCc4cccc(C(=O)Nc5nc6ccccc6s5)c4C3)nc2C(=O)O)c(F)c1
Effect on: cell-free assay
Technique: competition with immobilised ligand
Tested at: 1 µM
Endpoint: remaining binding
Tyrosine-protein kinase ABL1, phosphorylated (ABL1, Homo sapiens, UniProt P00519, Q252H): 94%
STK38 (Homo sapiens, UniProt Q15208): 76%
PKN1 (Homo sapiens, UniProt Q16512): 91%
TNIK (Homo sapiens, UniProt Q9UKE5): 83%
PIK3CD (Homo sapiens, UniProt O00329): 100%
EPHB1 (Homo sapiens, UniProt P54762): 100%
DCLK3 (Homo sapiens, UniProt Q9C098): 100%
CLK1 (Homo sapiens, UniProt P49759): 88%
TAOK1 (Homo sapiens, UniProt Q7L7X3): 100%
HIPK2 (Homo sapiens, UniProt Q9H2X6): 100%
ERBB3 (Homo sapiens, UniProt P21860): 100%
SNRK (Homo sapiens, UniProt Q9NRH2): 100%
PIKFYVE (Homo sapiens, UniProt Q9Y2I7): 100%
PIK3C2B (Homo sapiens, UniProt O00750): 100%
CSNK1A1 (Homo sapiens, UniProt P48729): 71%
HIPK1 (Homo sapiens, UniProt Q86Z02): 75%
DYRK1A (Homo sapiens, UniProt Q13627): 88%
MAP4K5 (Homo sapiens, UniProt Q9Y4K4): 91%
EGFR (Homo sapiens, UniProt P00533, G719S): 100%
Ribosomal protein S6 kinase alpha-2, C-terminal kinase domain (RPS6KA2, Homo sapiens, UniProt Q15349): 94%
PRKCD (Homo sapiens, UniProt Q05655): 100%
KIT (Homo sapiens, UniProt P10721, V559D/V654A): 78%
MET (Homo sapiens, UniProt P08581): 61%

Excerpt of the above (set 3):
C[C@@H]1CCN(C(=O)CC#N)C[C@@H]1N(C)c1ncnc2[nH]ccc12: 107%
N#C/C(=C\c1ccc(O)c(O)c1)C(=O)NCc1ccccc1: 108%
O=C(Nc1cccc(Nc2nccc(Nc3cccc(C(F)(F)F)c3)n2)c1)C1CC1: 104%
O=C(NC(NC(=S)Nc1ccc(F)c([N+](=O)[O-])c1)C(Cl)(Cl)Cl)C(c1ccccc1)c1ccccc1 (centres unmarked): 105%
Cc1cn(-c2cc(NC(=O)c3ccc(C)c(Nc4nccc(-c5cccnc5)n4)c3)cc(C(F)(F)F)c2)cn1: 98.6%
COc1cc2c(cc1OC)-c1[nH]nc(Nc3cccc(F)c3)c1C2: 95.8%
COc1cc2ncnc(Nc3cccc(Cl)c3)c2cc1OC: 105%
Ic1cccc(CSc2nnc(-c3ccncc3)o2)c1: 106%
